Experimental data of several laboratories.
Values joined by “and” are separate records of one study, mostly repeats; a detail may differ. ± gives the spread as reported.
PTPN11: Tyrosine-protein phosphatase non-receptor type 11 (PTPN11, Homo sapiens, UniProt Q06124)
CASP8: Caspase-8 (CASP8, Homo sapiens, UniProt Q14790)
Chain of UniProt Q14790 (whole entry, looked up): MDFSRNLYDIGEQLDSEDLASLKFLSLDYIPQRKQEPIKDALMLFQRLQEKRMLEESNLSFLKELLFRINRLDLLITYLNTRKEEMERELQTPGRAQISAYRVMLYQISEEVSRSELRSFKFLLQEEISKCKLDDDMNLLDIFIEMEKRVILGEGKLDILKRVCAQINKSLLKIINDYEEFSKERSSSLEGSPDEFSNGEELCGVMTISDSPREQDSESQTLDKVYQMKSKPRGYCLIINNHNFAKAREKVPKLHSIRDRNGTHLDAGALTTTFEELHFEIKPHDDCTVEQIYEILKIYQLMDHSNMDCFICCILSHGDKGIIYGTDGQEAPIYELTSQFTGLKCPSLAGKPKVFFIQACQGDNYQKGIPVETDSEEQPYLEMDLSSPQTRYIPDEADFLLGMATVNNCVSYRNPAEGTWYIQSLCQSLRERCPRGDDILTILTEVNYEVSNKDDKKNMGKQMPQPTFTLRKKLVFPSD
ECI2: Enoyl-CoA delta isomerase 2 (ECI2, Homo sapiens, UniProt O75521)
Chain of UniProt O75521 (whole entry, looked up): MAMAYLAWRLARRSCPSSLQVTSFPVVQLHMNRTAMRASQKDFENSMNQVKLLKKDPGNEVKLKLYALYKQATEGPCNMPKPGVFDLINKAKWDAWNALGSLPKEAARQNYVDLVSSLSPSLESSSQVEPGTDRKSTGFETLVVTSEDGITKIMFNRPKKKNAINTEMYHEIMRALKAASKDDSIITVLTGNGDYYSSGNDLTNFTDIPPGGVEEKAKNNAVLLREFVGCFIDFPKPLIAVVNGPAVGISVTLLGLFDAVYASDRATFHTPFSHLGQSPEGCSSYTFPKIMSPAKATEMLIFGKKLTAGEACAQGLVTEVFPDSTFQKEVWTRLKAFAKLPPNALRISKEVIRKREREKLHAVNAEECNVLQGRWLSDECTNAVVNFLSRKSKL
ADRA1A: Alpha-1A adrenergic receptor (ADRA1A, Homo sapiens, UniProt P35348)
Chain of UniProt P35348 (whole entry, looked up): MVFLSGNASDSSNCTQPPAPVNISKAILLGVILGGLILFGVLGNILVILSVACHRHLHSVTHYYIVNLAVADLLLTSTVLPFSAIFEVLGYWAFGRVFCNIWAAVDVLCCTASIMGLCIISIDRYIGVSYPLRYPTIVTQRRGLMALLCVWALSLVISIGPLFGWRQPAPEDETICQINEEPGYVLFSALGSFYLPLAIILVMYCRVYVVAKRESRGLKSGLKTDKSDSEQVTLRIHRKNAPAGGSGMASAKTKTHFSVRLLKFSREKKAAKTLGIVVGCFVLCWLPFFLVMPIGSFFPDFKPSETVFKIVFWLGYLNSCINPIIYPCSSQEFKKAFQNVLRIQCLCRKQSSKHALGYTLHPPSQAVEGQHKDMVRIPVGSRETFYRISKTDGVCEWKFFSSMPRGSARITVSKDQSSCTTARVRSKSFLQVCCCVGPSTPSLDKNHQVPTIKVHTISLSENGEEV
HSD3B1: 3 beta-hydroxysteroid dehydrogenase/Delta 5-->4-isomerase type 1 (HSD3B1, Homo sapiens, UniProt P14060)
Chain of UniProt P14060 (whole entry, looked up): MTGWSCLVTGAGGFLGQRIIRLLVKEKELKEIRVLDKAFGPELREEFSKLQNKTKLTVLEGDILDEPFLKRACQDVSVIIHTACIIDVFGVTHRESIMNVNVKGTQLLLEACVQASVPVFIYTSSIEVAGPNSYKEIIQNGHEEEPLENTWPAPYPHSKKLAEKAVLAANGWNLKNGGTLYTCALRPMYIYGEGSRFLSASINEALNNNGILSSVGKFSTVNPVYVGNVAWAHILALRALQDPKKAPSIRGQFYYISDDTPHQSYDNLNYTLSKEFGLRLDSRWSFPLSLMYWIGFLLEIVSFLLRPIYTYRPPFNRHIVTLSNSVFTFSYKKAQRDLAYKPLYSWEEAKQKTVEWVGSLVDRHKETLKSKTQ
MAPT PHF6* peptide: Microtubule-associated protein tau, PHF6* peptide (MAPT, Homo sapiens, UniProt P10636)
T1: DNA, abasic bulge, mismatch; chain GTCCAGTGCAACG; chain CGTTGCGGCTGGAC
Chain of UniProt P45983 (whole entry, looked up): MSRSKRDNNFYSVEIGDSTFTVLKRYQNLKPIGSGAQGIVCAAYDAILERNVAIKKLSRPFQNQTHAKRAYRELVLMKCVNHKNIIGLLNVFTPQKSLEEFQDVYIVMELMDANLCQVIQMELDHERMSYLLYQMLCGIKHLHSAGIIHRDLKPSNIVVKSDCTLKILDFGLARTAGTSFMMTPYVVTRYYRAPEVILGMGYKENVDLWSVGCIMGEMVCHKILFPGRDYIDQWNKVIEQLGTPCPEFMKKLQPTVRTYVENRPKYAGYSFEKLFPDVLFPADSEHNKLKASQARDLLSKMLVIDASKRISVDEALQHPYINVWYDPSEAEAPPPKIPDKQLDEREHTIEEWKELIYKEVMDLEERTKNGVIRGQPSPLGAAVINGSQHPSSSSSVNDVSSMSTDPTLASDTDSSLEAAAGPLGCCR
Chain of UniProt P22061 (whole entry, looked up): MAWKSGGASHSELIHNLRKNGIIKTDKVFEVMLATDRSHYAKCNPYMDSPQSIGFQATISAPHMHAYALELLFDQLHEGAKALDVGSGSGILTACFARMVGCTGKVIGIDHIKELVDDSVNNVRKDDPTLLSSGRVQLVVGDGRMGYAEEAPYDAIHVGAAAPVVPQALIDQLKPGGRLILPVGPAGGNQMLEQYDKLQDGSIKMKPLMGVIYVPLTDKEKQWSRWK
Chain of UniProt Q704Y3 (whole entry, unmodified, looked up): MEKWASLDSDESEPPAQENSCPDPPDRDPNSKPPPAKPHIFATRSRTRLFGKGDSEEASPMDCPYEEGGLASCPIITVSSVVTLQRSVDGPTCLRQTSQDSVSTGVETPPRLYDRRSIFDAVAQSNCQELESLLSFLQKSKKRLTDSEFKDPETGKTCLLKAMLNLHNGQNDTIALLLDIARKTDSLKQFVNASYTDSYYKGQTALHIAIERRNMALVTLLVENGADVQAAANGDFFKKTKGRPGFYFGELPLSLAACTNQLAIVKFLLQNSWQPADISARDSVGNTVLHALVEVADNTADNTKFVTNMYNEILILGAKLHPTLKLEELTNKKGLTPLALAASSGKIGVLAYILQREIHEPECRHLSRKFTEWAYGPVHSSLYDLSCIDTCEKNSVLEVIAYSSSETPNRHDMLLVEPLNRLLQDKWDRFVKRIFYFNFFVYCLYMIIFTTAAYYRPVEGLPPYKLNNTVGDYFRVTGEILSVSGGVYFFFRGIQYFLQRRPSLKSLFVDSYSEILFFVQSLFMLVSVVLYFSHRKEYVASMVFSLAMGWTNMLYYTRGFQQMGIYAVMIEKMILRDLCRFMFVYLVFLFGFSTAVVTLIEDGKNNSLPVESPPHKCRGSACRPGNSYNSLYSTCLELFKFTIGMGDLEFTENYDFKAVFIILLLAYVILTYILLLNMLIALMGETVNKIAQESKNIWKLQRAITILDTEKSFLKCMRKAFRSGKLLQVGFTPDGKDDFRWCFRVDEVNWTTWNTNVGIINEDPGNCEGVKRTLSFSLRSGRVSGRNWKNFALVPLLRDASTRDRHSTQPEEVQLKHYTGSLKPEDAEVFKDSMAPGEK
Chain of UniProt P32247 (whole entry, looked up): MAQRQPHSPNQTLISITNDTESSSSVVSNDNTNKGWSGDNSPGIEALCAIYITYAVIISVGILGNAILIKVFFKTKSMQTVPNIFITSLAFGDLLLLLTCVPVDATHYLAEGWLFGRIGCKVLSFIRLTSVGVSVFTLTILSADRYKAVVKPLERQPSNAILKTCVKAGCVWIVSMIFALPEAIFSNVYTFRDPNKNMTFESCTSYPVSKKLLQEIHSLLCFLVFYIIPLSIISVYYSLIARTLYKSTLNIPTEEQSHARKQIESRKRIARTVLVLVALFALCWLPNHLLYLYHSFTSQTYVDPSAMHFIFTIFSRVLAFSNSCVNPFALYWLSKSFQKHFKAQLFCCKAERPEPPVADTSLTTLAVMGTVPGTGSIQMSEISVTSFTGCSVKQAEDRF
Chain of UniProt Q9UQ07 (whole entry, looked up): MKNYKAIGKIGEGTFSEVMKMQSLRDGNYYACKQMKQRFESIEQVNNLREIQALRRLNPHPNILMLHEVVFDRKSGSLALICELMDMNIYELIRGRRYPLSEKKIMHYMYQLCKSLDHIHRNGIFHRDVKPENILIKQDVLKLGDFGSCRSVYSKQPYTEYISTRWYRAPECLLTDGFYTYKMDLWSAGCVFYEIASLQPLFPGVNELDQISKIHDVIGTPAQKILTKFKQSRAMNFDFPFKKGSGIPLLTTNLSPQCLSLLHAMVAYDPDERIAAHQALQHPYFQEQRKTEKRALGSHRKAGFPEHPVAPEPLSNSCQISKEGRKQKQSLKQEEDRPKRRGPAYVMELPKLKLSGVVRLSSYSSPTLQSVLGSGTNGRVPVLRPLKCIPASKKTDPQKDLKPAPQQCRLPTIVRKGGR
Chain of UniProt Q9HB29 (whole entry, looked up): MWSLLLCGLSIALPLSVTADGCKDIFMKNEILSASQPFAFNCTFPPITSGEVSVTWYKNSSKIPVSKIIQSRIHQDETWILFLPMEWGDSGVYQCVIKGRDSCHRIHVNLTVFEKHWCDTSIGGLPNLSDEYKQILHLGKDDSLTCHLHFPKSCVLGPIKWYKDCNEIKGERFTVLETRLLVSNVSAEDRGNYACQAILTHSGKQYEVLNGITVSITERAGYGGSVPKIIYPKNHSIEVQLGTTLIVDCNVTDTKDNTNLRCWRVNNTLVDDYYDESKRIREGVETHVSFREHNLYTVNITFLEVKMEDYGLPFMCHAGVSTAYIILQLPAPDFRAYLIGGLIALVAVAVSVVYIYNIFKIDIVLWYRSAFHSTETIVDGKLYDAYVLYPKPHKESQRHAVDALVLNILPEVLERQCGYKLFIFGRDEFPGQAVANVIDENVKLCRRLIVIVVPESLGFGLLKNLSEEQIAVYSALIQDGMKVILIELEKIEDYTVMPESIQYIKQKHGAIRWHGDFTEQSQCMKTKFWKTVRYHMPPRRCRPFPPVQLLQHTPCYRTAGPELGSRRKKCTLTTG
Chain of UniProt Q96C86 (whole entry, looked up): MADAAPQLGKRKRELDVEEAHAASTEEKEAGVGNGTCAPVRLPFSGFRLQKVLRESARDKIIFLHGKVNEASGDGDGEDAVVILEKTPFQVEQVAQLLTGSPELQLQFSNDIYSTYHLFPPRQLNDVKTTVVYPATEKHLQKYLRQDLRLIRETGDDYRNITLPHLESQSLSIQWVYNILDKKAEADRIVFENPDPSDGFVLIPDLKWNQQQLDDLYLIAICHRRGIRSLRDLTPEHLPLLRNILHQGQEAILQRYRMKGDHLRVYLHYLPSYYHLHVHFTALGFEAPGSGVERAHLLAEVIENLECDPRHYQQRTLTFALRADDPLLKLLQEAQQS

With `Cc1cc(=O)oc2c(F)c(OP(=O)(O)O)c(F)cc12` the Km was 2540 ± 40 µM (PTPN11; dephosphorylation, substrate; basal enzyme).
`Nc1ncnc2c1ncn2C1OC(CN(CCCC2CNCc3c2ccc(Cl)c3Cl)CCC(N)C(=O)O)C(O)C1O` (mixture of isomers) has a ΔG-1 of -10.2 ± 0.3 kcal/mol (PNMT (Homo sapiens, UniProt P11086); ITC; first site, SAH bound).
`Cc1cc(C(=O)NCCNC(=O)c2cccc(COc3ccccc3C(N)=O)c2)n[nH]1` has an inhibition of 38% (PARP2 (Homo sapiens, UniProt Q9UGN5); enzyme activity, inhibitor; 5 nM).
`N#CN1CC[C@H](C(=O)Nc2nc3c(s2)CN(C(=O)Cn2cc(CNC(=O)CCCC[C@@H]4SC[C@@H]5NC(=O)N[C@@H]54)nn2)CC3)C1` has an iBAQ abundance of 1.74e+08 and 1.55e+08 and 4.17e+08 (PCMT1 (Homo sapiens, UniProt P22061); probe binding, affinity probe, neutravidin pull-down LC-MS/MS; HEK293T, cell lysate; 5 µM, 1 h, single replicate, unit not given; higher = more pulled down).
`O=C(N1CCCC1)n1cc(-c2ccc(-c3ccccc3)cc2)nn1` — result for “SILAC activity ratio”: 1.18 (Alpha/beta hydrolase domain-containing protein 17B (Abhd17b, Mus musculus, UniProt Q7M759); probe labelling, inhibitor, competitive ABPP-SILAC, measured: Fam108b1; mouse T cells; concentration not given, 4 h, protein level; baseline: treated over DMSO cells, lower = stronger inhibition).
With `CO[C@@H]1[C@H](O)[C@@H](COP(=O)(O)OP(=O)([O-])C(Cl)(Cl)P(=O)(O)OP(=O)(O)OC[C@H]2O[C@@H](n3cnc4c(=O)[nH]c(N)nc43)[C@H](O)[C@@H]2O)O[C@H]1n1c[n+](C)c2c(O)nc(N)nc21` the hydrolysis was 0% (DCPS (Homo sapiens, UniProt Q96C86); substrate, HPLC; concentration not given, 120 min).
For `CC(=O)N[C@@H](CC(C)C)C(=O)N[C@@H](CCC(=O)O)C(=O)N[C@H](C(=O)N[C@@H](CC(=O)O)C(=O)COC(=O)c1c(C)cccc1C)[C@@H](C)OCc1ccccc1`, the kinact/KI was 628000 M⁻¹ s⁻¹ (CASP8; enzyme activity, inhibitor).
`CCCCCCCC/C=C\CCCCCCCC(=O)NCCO` — result for “maximal open probability”: 0.37 ± 0.09 (Trpv1 (Mus musculus, UniProt Q704Y3, T551V); ion current, agonist, whole-cell patch clamp; T551V; baseline: 3 mM 2-APB).
`CCCCCCCCCCCCC/C=C/C=O` — result for “isoTOP-ABPP competition ratio”: 1.1 (ECI2; competitive isoTOP-ABPP; proteome, soluble, MDA-MB-231; 100 µM, 60 min, together with: iodoacetamide probe; baseline: DMSO over compound-treated, higher = stronger cysteine blockade).
`CC(C)[C@@H]1NC(=O)[C@H](Cc2ccccc2)NC(=O)CSC[C@@H](C(N)=O)NC(=O)[C@H](CCC(=O)O)NC(=O)[C@H](CO)NC(=O)[C@H](Cc2c[nH]c3cccc(Cl)c23)NC(=O)[C@H](C2CCCCC2)NC(=O)[C@H](C(C)C)NC(=O)[C@H](Cc2ccc(O)cc2)NC(=O)[C@H](CC(=O)O)NC(=O)[C@H](Cc2c[nH]c3ccccc23)NC(=O)[C@H](Cc2ccc(N)nc2)NC(=O)[C@H](Cc2c[nH]c3ccc(Cl)cc23)NC(=O)[C@H](CCC(=O)O)NC1=O` has a remaining activity of 87.5% (Interleukin-1 receptor-like 2 (IL1RL2, Homo sapiens, UniProt Q9HB29); reporter gene (SEAP), inhibitor, HEK-Blue IL-36R reporter; HEK-Blue IL-36R cells; 0.0017 µM, 6 h, together with: IL-36β 0.01 ng/mL).
With `CC(=O)NCCCC[C@H](NC(C)=O)C(=O)N[C@@H](CCCC(=O)O)C(=O)N[C@@H](C)C(=O)N[C@@H](CC(=O)O)C(=O)COC(=O)c1c(C)cccc1C` the kinact/KI was 990000 M⁻¹ s⁻¹ (CASP8; enzyme activity, inhibitor).
Under “time to return to baseline ERK phosphorylation”, `CNC[C@H](O)c1cccc(OCCOCCOCC#Cc2cccc(Cn3c(-c4ccccc4)c(-c4ccccc4)c4c(=N)n([C@H]5CC[C@H](O)CC5)cnc43)c2)c1` is recorded as ≤ 30 min (ADRA1A; agonist, immunoblot, measured: phospho-ERK1/2; HEK293 stably transfected with ADRA1A; 10 µM).
For `CC(=O)N[C@@H](CC(C)C)C(=O)N[C@@H](CCC(N)=O)C(=O)N[C@@H](CO)C(=O)N[C@@H](CC(=O)O)C(=O)COC(=O)c1c(C)cccc1C`, the kinact/KI was 315000 M⁻¹ s⁻¹ (Caspase-10 (CASP10, Homo sapiens, UniProt Q92851); enzyme activity, inhibitor).
`CCN1CCN(Cc2ccc(C(=O)Nc3ccc(C)c(NCc4cnc5[nH]ccc5c4OC)c3)cc2C(F)(F)F)CC1` has a remaining binding of 1.6% (Tyrosine-protein kinase ABL1, phosphorylated (ABL1, Homo sapiens, UniProt P00519, Q252H); binding, competition with immobilised ligand; 1 µM).
The kinact/KI of `CC(=O)N[C@@H](CC(C)C)C(=O)N[C@H](C(=O)N[C@@H](Cc1c[nH]cn1)C(=O)N[C@@H](CC(=O)O)C(=O)COC(=O)c1c(C)cccc1C)C(C)(C)C` is reported as 978000 M⁻¹ s⁻¹ (CASP8; enzyme activity, inhibitor).
For `O=C1c2sc(-c3ccc(N4CCC(F)C4)nc3F)nc2CCN1c1cccnc1` (stereo not drawn), the inhibition was 1% (BRS3 (Homo sapiens, UniProt P32247); ligand displacement, radioligand; 1 µM).
The DHEA metabolism of `Cc1ccccc1-c1coc2cc(O)ccc2c1=O` is reported as 0 (HSD3B1; [3H]-DHEA conversion; LNCaP; 0.1 µM, normalized to protein, unit not given; baseline: vehicle).
`N=C(N)NCCS(=O)(=O)O`: “normalised MST signal” -0.00752 (SLC6A6 (Homo sapiens, UniProt P31641, G62A); binding, microscale thermophoresis; 250 µM, room temperature, together with: 50 nM labelled protein; higher = more binding).
With `CC(C)[C@H](NC(=O)[C@@H](NC(=O)[C@H](Cc1ccccc1)NC(=O)[C@@H](N)CO)[C@@H](C)O)C(=O)N[C@@H](CCCNC(=N)N)C(=O)N[C@@H](C)C(N)=O` the ThT fluorescence was 4 ± 1% (MAPT PHF6* peptide; fibril formation, ThT fluorescence; 5-fold of peptide, 240 min, pH 7.4, together with: Ac-PHF6* 25 µM, heparin; baseline: untreated).
For `CCCCCC=CC=C1C(=O)C=CC1CC=CCCCC(=O)O` (stereo not drawn), “isoTOP-ABPP competition ratio” read 1.6 (Mannose-1-phosphate guanylyltransferase regulatory subunit alpha (GMPPA, Homo sapiens, UniProt Q96IJ6); competitive isoTOP-ABPP, measured: GMPPA cysteine peptide; Ramos soluble proteome; 100 µM, together with: iodoacetamide probe; baseline: DMSO over compound-treated, higher = stronger cysteine blockade).
`C=CC(=O)N1CCCC(n2c(=O)c3ncccc3n(Cc3ccc(Oc4ccccc4)cc3)c2=O)C1` (stereo not drawn) — result for “melting temperature shift”: -4.71 (Secernin-1 (SCRN1, Homo sapiens, UniProt Q12765); thermal proteome profiling, measured: SCRN1; unit not given; baseline: vehicle).
For `C=C1C(=O)C2(C(=O)N3CCN(C(C)=O)CC3)CC(=O)CC1C2` (racemic), the kinact/KI was 15.4 M⁻¹ s⁻¹ (PTPN11; enzyme activity, covalent inhibitor; together with: pNPP substrate).
For `CC[C@H](C)[C@H](NC(=O)[C@@H](NC(=O)[C@@H](NC(=O)[C@@H](NC(=O)[C@H](CCCCN)NC(=O)[C@H](CCC(=O)O)NC(=O)[C@H](C)N)C(C)C)C(C)C)C(C)C)C(=O)N[C@H](C(=O)N[C@@H](CCCCN)C(N)=O)[C@@H](C)O`, the ThT fluorescence was 3 ± 1% (MAPT PHF6* peptide; fibril formation, ThT fluorescence; 5-fold of peptide, 240 min, pH 7.4, together with: Ac-PHF6* 25 µM, heparin; baseline: untreated).
`CNC(=O)C[C@H](Cc1ccc(C#N)cc1)NC(=O)c1cc(-c2ccc(CN[C@H](C)c3ccc(C)cc3)o2)ccc1Cl`: “activity vs control” 106% (MOK (Homo sapiens, UniProt Q9UQ07); enzyme activity, inhibitor; 1 µM).
`COc1ccccc1-c1ccncc1C(=O)Nc1nnc(OCc2ccc(Cl)cc2)s1` has a remaining activity of 32% (DNA polymerase theta, helicase domain (POLQ, Homo sapiens, UniProt O75417); ATPase activity, ADP-Glo; 0.12 µM; baseline: 0 µM cpd).
`CC(=O)N[C@@H](Cc1c[nH]c2ccccc12)C(=O)N[C@@H](CCC(=O)O)C(=O)N[C@@H](C)C(=O)N[C@@H](CC(=O)O)C(=O)COC(=O)c1c(C)cccc1C` has a kinact/KI of 1.89e+06 M⁻¹ s⁻¹ (CASP8; enzyme activity, inhibitor).
With `C[Si](C)(C)C[C@@H](CN)CC(=O)O` the inhibition was 16% (L-type calcium channel, rat; binding, radioligand binding; 75 µM, together with: [3H](-)-desmethoxyverapamil).
`CC(=O)N[C@@H](CC(=O)O)C(=O)N[C@@H](CCCC(=O)O)C(=O)N1[C@H](C(=O)N[C@@H](CC(=O)O)C(=O)COC(=O)c2c(C)cccc2C)C[C@@H]2CCCC[C@@H]21` gave a kinact/KI of 832000 M⁻¹ s⁻¹ (CASP8; enzyme activity, inhibitor).
`Cc1ccc2ccc(NC(=O)OCCCNCCCOC(=O)Nc3ccc4ccc(C)nc4n3)nc2n1` — result for binding: “binds weakly” (T1, DNA, abasic bulge, mismatch; CSI-TOF mass spectrometry).
The DHEA metabolism of `O=c1c(-c2ccccc2F)coc2cc(O)ccc12` is reported as 0.46 (HSD3B1; [3H]-DHEA conversion; LNCaP; 0.1 µM, normalized to protein, unit not given; baseline: vehicle).
The kinact/KI of `CC(=O)N[C@@H](Cc1ccc(O)cc1)C(=O)N1CSC[C@H]1C(=O)N[C@@H](C)C(=O)N[C@@H](CC(=O)O)C(=O)COC(=O)c1c(C)cccc1C` is reported as 28000 M⁻¹ s⁻¹ (CASP8; enzyme activity, inhibitor).
`CCCCCC(O)/C=C/C=O` (stereo not drawn) — result for “isoTOP-ABPP competition ratio”: 1.7 (ECI2; competitive isoTOP-ABPP; proteome, soluble, MDA-MB-231; 100 µM, 60 min, together with: iodoacetamide probe; baseline: DMSO over compound-treated, higher = stronger cysteine blockade).
`C#CCOC(=O)[C@@]1(C)C=C(C(=O)OC(C)(C)C)C(=O)CC1` — result for “normalized kinase activity”: 0.932 and 1.14 and 0.874 (MAPK8 (Homo sapiens, UniProt P45983); enzyme activity, D-SENSOR; 0.06097 µM, single replicate).
The agonist activity of `Cc1ccc2oc(=O)cc(Cn3ccnc3)c2c1` is reported as 18.5 ± 3.28% (ADRA1A; calcium mobilization, agonist; COS-7; 500 µM; baseline: 3 µM ionomycin).
`CCCC[C@H](NC(C)=O)C(=O)N[C@@H](CCCC(=O)O)C(=O)N1CCC[C@H]1C(=O)N[C@@H](CC(=O)O)C(=O)COC(=O)c1c(C)cccc1C` gave a kinact/KI of 2.28e+06 M⁻¹ s⁻¹ (CASP8; enzyme activity, inhibitor).
`CC(C=CC=C(C)C=CC1=C(C)CCCC1(C)C)=CC=O` — result for “plasma membrane localization”: 0.69 (Rhodopsin (RHO, Homo sapiens, UniProt P08100, E181K); immunostaining, measured: opsin; COS-7 transfected; 10.00 µM, unit not given; baseline: surface over total stained cells).

Some of these lines once more:
`Nc1ncnc2c1ncn2C1OC(CN(CCCC2CNCc3c2ccc(Cl)c3Cl)CCC(N)C(=O)O)C(O)C1O` (mixture of isomers) has a ΔG-1 of -10.2 ± 0.3 kcal/mol (PNMT (Homo sapiens, UniProt P11086); ITC; first site, SAH bound).
`Cc1cc(C(=O)NCCNC(=O)c2cccc(COc3ccccc3C(N)=O)c2)n[nH]1` has an inhibition of 38% (PARP2 (Homo sapiens, UniProt Q9UGN5); enzyme activity, inhibitor; 5 nM).
`N#CN1CC[C@H](C(=O)Nc2nc3c(s2)CN(C(=O)Cn2cc(CNC(=O)CCCC[C@@H]4SC[C@@H]5NC(=O)N[C@@H]54)nn2)CC3)C1` has an iBAQ abundance of 1.74e+08 and 1.55e+08 and 4.17e+08 (PCMT1 (Homo sapiens, UniProt P22061); probe binding, affinity probe, neutravidin pull-down LC-MS/MS; HEK293T, cell lysate; 5 µM, 1 h, single replicate, unit not given; higher = more pulled down).
`O=C(N1CCCC1)n1cc(-c2ccc(-c3ccccc3)cc2)nn1` — result for “SILAC activity ratio”: 1.18 (Alpha/beta hydrolase domain-containing protein 17B (Abhd17b, Mus musculus, UniProt Q7M759); probe labelling, inhibitor, competitive ABPP-SILAC, measured: Fam108b1; mouse T cells; concentration not given, 4 h, protein level; baseline: treated over DMSO cells, lower = stronger inhibition).
